Published values from different studies.
Each numbered part is a random draw from the data of one study; scales do not carry over between parts.

Study 1 — method: protein binding microarray; form: double-stranded DNA, one strand shown; matrix: in vitro; concentration: not given; reference: not given; reading: higher = stronger binding; measurement: E-score
Target: Histone acetyltransferase KAT6A, winged helix 1, GST fusion (KAT6A, Homo sapiens, UniProt Q92794, residues 1-85)
Setting: 8-mer, flanks averaged, mean of 2 arrays, mostly near background
Construct (chain): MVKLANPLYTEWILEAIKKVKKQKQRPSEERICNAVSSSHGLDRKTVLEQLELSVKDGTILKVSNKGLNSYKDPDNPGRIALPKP
ACACGAGT: -0.091
ACTGCATA: -0.255
ATCCGCAC: 0.257
GTAATCTA: -0.029
CACGTCGA: -0.105
CTAACCGA: 0.06
CCTACGAG: -0.135
ACTCTGAT: 0.0128

Study 2 — method: protein-binding microarray; form: double-stranded DNA, one strand shown; matrix: in vitro; concentration: 2540 nM top; setting: 60-bp whole probe; with: salmon DNA 0.4 mg/ml; reference: random background probes; reading: higher = stronger binding; measurement: fitted relative affinity; constant ends, left off below: GCCTAGCAC … GTCTTGATTCGCTTGACGCTGCTG
Target: Interferon regulatory factor 3, full length, phosphomimetic (IRF3, Homo sapiens, UniProt Q14653, residues 1-427, S386D/S396D/S398D/S402D/T404D/S405D)
Construct (chain): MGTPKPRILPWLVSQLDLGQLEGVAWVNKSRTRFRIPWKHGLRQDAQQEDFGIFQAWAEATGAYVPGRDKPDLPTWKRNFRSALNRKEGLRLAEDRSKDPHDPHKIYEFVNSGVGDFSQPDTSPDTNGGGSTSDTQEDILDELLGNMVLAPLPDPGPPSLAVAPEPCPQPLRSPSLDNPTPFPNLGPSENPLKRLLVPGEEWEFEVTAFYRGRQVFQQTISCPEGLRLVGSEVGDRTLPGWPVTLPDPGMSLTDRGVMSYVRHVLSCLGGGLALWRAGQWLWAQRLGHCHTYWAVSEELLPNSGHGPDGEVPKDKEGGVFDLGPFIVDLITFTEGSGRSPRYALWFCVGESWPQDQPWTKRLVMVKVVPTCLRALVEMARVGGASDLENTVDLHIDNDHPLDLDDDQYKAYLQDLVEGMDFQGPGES
GACGTTATCGACACTGGGGACGTGCTA: -0.0523 z-score
TTAGATATCAGACTGCATTAGTGCTAG: 0.117 z-score
GACGGACTCGGTCTCGGGACGTGCTAG: 0.00507 z-score
TTAGGTCTCGGTTTCAGTTAGTGCTAG: 3.12 z-score
CAAACACTAGTTTTCATTTTGTGCTAG: 3.75 z-score
GACGGTTCCGGTTTCGGAACGTGCTAG: 7.9 z-score
TCATGCTTCTGTATGGGACTGTGCTAG: -0.296 z-score
GACGATATCGGGACTGGAGACGTGCTA: 0.16 z-score
GACTGTTTCGGGTATCGGGACGTGCTA: 3.96 z-score

Study 3 — method: aptamer microarray, sandwich; form: DNA with 2'F-ANA; matrix: in vitro; concentration: 200 nM; with: Cy3 exosite-II aptamer, 400 nM; reading: higher = stronger binding; measurement: mean fluorescence intensity; strand: GGTTGGTGTGGTTGG
Target: Prothrombin, mature alpha-thrombin (F2, Homo sapiens, UniProt P00734)
Setting: whole 15-mer aptamer, many near background
2'F-ANA at 2 3 10 11 12 14: 305 a.u.
2'F-ANA at 4 5 8 10 11 12 14: 49.3 a.u.
2'F-ANA at 2 7 8 14: 205 a.u.
2'F-ANA at 1 2 4 5 7 8 9 11 12 13: 66.3 a.u.
2'F-ANA at 3 4 5 7 8 13 14: 54.9 a.u.
2'F-ANA at 1 2 3 4 5 6 7 8 9 11 14 15: 53.4 a.u.

Further values, each from its own experiment
PhoQ, residues 284 288 289 292 302 303 ALVSVA — fold induction (PhoP, residues 12 14 15 18 19 SFCSL (Escherichia coli, UniProt P23836); Sort-seq, refers to: YFP reporter; E. coli; PhoQ-PhoP variant library, with: 10 µM Mg2+; reference: high Mg2+ state, higher = stronger signaling): 21.4
